Measured values pooled from the literature.
Each line is one published result; not all experiments were run side by side.

`CNC(=O)c1cc(Oc2ccc(NC(=O)Nc3cc(C(C)(C)C)nn3-c3ccc4ncccc4c3)c(F)c2)ccn1`: “patients with grade 3 musculoskeletal disorders” 28% (patients; oral, dose not given, cycles 1 and 2, High Cmax subgroup).
`COc1cc(Nc2ncc3c(n2)-c2ccc(Cl)cc2C(c2c(F)cccc2OC)=NC3)ccc1C(=O)O` — result for “patients with adverse event”: 25% (measured: increased ALP, all grades; cancer patients, phase 1/2; oral, dose not given, together with: pembrolizumab).
`Cc1cc(-c2nnc(N)nc2-c2ccc(F)cc2)cc(Cl)n1` — result for “patients with immune-mediated AE”: 0% (measured: Hypothyroidism; IO-naive mCRPC patients, male; oral, dose not given, treatment-related, all grades).
For `C=CC(=O)NC1CCN(c2ncc3ncnc(Nc4ccc(Oc5ccc6c(c5)ncn6C)c(C)c4)c3n2)CC1`, “patients with Fatigue” read 6% (male patients; oral, dose not given, treatment-related adverse events).
`CCOc1c([C@H](C)n2nc(C)c3c(N)ncnc32)cc(Cl)c(F)c1[C@@H]1CNC(=O)C1` has a patients of 100% (measured: QTcF ≤450 ms; previously treated B-cell malignancy; oral, 30 mg once daily, overall population).
`COc1ccc([C@@H](O)c2cc(-c3ncnc4cc(N5CCOCC5)ccc34)c(F)cc2Cl)nn1`: “patients with drug-related AE” 67% (measured: general and administration site disorders; locally advanced rectal cancer patients; 100 mg, together with: capecitabine plus radiotherapy).
`CC(C)C[C@H](NC(=O)CNC(=O)c1cc(Cl)ccc1Cl)B(O)O` — result for “patients with adverse event”: 0% (measured: Insomnia, all grades; newly diagnosed multiple myeloma patients; oral, dose not given, maintenance phase, new onset, cycle 17 or later).
`Cc1cc(NC2CCN(C(=O)OC3CCN(C(=O)/C=C/CN(C)C)C3)CC2)n2ncc(C(C)C)c2n1` (stereo not drawn): “patients with adverse events” 41% (patients with advanced solid tumours; dose not given, Total arm, grade 3 or higher).
Under “patients with adverse event”, `CNC(=O)c1ccc(-c2cnc3ncc(Cc4ccc5ncccc5c4)n3n2)cc1F` is recorded as 0% (measured: Anemia; gastric cancer patients; oral, 600 mg twice daily, expansion cohort, grade 3-4).
`C[C@@H](Nc1cc(F)cc(F)c1)c1cc(C(=O)N(C)C)cc2c(=O)cc(N3CCOCC3)oc12` — result for “patients discontinuing for AE”: 5% (measured: Pyrexia; advanced solid tumour patients; oral, dose not given, dose expansion).
Under “patients with adverse events”, `C=CC(=O)Nc1cc(Nc2nccc(-c3cn(C)c4ccccc34)n2)c(OC)cc1N(C)CCN(C)C` is recorded as 1% (measured: treatment-related grade ≥3 Pneumonitis; EGFR-mutant MET-altered NSCLC; oral, dose not given, all).
`O=C(Nc1nc2cccc(-c3ccc(CN4CCS(=O)(=O)CC4)cc3)n2n1)C1CC1` — result for “patients with Vascular disorders”: 0% (rheumatoid arthritis patients; oral, 100 mg twice daily, 4 weeks, TEAE regardless of relatedness).

For quick reference, copied from above:
`CCOc1c([C@H](C)n2nc(C)c3c(N)ncnc32)cc(Cl)c(F)c1[C@@H]1CNC(=O)C1` has a patients of 100% (measured: QTcF ≤450 ms; previously treated B-cell malignancy; oral, 30 mg once daily, overall population).
`COc1ccc([C@@H](O)c2cc(-c3ncnc4cc(N5CCOCC5)ccc34)c(F)cc2Cl)nn1`: “patients with drug-related AE” 67% (measured: general and administration site disorders; locally advanced rectal cancer patients; 100 mg, together with: capecitabine plus radiotherapy).
